Experimental data of several laboratories.
Lines come from different studies, so protocols differ. ± marks the error that the study gave. In brackets after ≈: the same amount, converted by molar mass.
Organism: Bacillus subtilis

Compound | test | test system | conditions | endpoint | value
COc1cc(NC(=O)CSc2nc3ccccc3c(=O)n2-c2ccc(S(N)(=O)=O)cc2)cc(OC)c1OC | microbial growth, well diffusion | ATCC6633 | 500 µg/mL, 24 h | inhibition zone | 20 mm
CCOC(=O)c1cnc(N/N=C/c2c(-c3ccc(Cl)cc3)nc3ncccn23)s1 | microbial growth, well diffusion | ATCC6051 | 100 µg/mL | inhibition zone | 11 mm
COc1ccccc1N1CCN(Cn2nc(C34CC5CC(CC(C5)C3)C4)n(-c3ccccc3)c2=S)CC1 | – | IFO 3007 | 200 µg/disc, 24 h, 37 °C | inhibition zone diameter | 21 mm
CCOC(=O)c1sc(N/N=C/c2c(-c3ccccc3)nc3ncccn23)nc1C | microbial growth, well diffusion | ATCC6051 | 100 µg/mL | inhibition zone | 12 mm
NS(=O)(=O)c1ccc(-n2c(S)nc3ccccc3c2=O)cc1 | microbial growth, well diffusion | ATCC6633 | 500 µg/mL, 24 h | inhibition zone | 16 mm
CC(C)=CCCC1(C)CC=NO1 (stereo not shown) | microbial growth | – | – | IC50 | > 500 µM
Cn1c(SCCN2CCCCC2)nnc1C12CC3CC(CC(C3)C1)C2 | – | IFO 3007 | 200 µg/disc, 24 h, 37 °C | inhibition zone diameter | 14 mm
CCc1cccc(NC(=O)CSc2nc3ccccc3c(=O)n2-c2ccc(S(N)(=O)=O)cc2)c1 | microbial growth, well diffusion | ATCC6633 | 500 µg/mL, 24 h | inhibition zone | 16 mm
S=c1n(CN2CCN(c3ccccn3)CC2)nc(C23CC4CC(CC(C4)C2)C3)n1-c1ccccc1 | – | IFO 3007 | 200 µg/disc, 24 h, 37 °C | inhibition zone diameter | 30 mm
Cc1cc([N+](=O)[O-])ccc1NC(=O)CSc1nc2ccccc2c(=O)n1-c1ccc(S(N)(=O)=O)cc1 | microbial killing | ATCC6633 | 24 h | MBC | 0.62 µg/mL (≈ 1.18 µM)
O=C(O)CN1C(=O)/C(=C/c2ccc(-c3ccc(N(c4ccccc4)c4ccccc4)cc3)cc2)NC1=S | broth microdilution | ATCC 6633 | – | MBC/MIC ratio | 1
C=C1CC(OC(=O)C(C)(O)CCl)C2C(=C)C(=O)OC2C2C1CC(O)C2(O)CCl (stereo not shown) | – | – | concentration not given | inhibition zone | 12 ± 1.6 mm
COc1cc(NC(=O)CSc2nc3ccccc3c(=O)n2-c2ccc(S(N)(=O)=O)cc2)cc(OC)c1 | microbial growth, well diffusion | ATCC6633 | 500 µg/mL, 24 h | inhibition zone | 24 mm
CCOC(=O)c1cnc(N/N=C/c2c(-c3ccc(F)cc3)nc3ncccn23)s1 | – | ATCC 6051 | 100 µg/mL | inhibition zone | 16 mm
Cn1c(C23CC4CC(CC(C4)C2)C3)nn(CCN2CCCCC2)c1=S | – | IFO 3007 | 200 µg/disc, 24 h, 37 °C | inhibition zone diameter | 19 mm
CCOC(=O)C1=C(C)NC2=C(C(=O)CC(C)(C)C2)C1c1ccc(OCC(=O)NN=Cc2cc(Br)c(O)c(Br)c2)cc1OCC(=O)NN=Cc1cc(Br)c(O)c(Br)c1 (stereo not shown) | – | ATCC 6337 | concentration not given, 24 h, 37 °C | inhibition zone diameter | 13.2 ± 0.01 mm
CCN(CC)CCSc1nnc(C23CC4CC(CC(C4)C2)C3)n1C | – | IFO 3007 | 200 µg/disc, 24 h, 37 °C | inhibition zone diameter | 14 mm
CCOC(=O)c1cnc(N/N=C/c2c(-c3ccc(C#N)cc3)nc3ncccn23)s1 | – | ATCC 6051 | 100 µg/mL | inhibition zone | 15 mm
Clc1ccc(CSc2nnc(C34CC5CC(CC(C5)C3)C4)n2-c2ccccc2)cc1 | – | IFO 3007 | 200 µg/disc, 24 h, 37 °C | inhibition zone diameter | 17 mm
CCOC(=O)c1cnc(N/N=C/c2c(-c3ccc(OC)cc3)nc3ncccn23)s1 | microbial growth, well diffusion | ATCC6051 | 100 µg/mL | inhibition zone | 12 mm
CCN1CCN(Cn2nc(C34CC5CC(CC(C5)C3)C4)n(-c3ccccc3)c2=S)CC1 | – | IFO 3007 | 200 µg/disc, 24 h, 37 °C | inhibition zone diameter | 16 mm
Cc1cccc([N+](=O)[O-])c1NC(=O)CSc1nc2ccccc2c(=O)n1-c1ccc(S(N)(=O)=O)cc1 | microbial growth, well diffusion | ATCC6633 | 500 µg/mL, 24 h | inhibition zone | 30 mm
